Experimental data pooled from the literature.
Every numbered part comes from another study and shows a few of its results, in no order.

Block 1
Target: RNA binding protein fox-1 homolog 2, RRM domain, GST-SBP tag (RBFOX2, Homo sapiens, UniProt O43251-10, residues 100-194)
Technique: RNA Bind-n-Seq
Molecule type: RNA
Matrix: in vitro
Tested at: 365 nM
Notes: natural RNA segment, single round, ends assumed
Baseline: no-protein control
Reading: higher = stronger binding
Quantity: RBNS enrichment (R)
Constant ends, left off below: GGGAGUUCUACAGUCCGACGAUC … UGGAAUUCUCGGGUGCCAA
Construct (chain): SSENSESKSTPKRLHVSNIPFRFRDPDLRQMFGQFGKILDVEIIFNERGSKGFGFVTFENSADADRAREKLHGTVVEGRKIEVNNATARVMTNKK
AUCUUCCCAUCGGCUGUGGCAAGCUCUUCCCCUGUGUGGAAUUUUGUUAUCUUUAUUUAGCUGAGGUUAAAUUAAUCUCUGUUGUGCAAGAAAAACAUGAAGCUUGCCCC: 0.344
UUUAAAAUGGUGCCCUACCAUUGACACAUGCAGAAAUUGGUGCGUUUUGUUUUUUUUUUUCCUAUGCUGCUCUGUUUUGUCUUAAAGGUCUUGAGGGUUGACCAUGUUGC: 4.35
AGGUCUGCCCACCCAGCUGAUCUCGGAGUCCUGGCCCCAGUCCAUGUGUAGCUCUAAGAACAUGAAGUAGCUGGUUGCAAGAUGGACCAACUCACCAAGUGUCAGCCCAG: 0.845
GAUCGUUCAUUAUAAAGGCAGCGUUCAUAGAAUUGCUUUUCUUUCUUUUUACCCCCCCUUUGGGAACUGGAUUUAAGUUUAAAACUUUCCUGUUUCCUUUUUUUUUUUUU: 0.435
UGAAGGAGUUAAUUAAAAGAGAGCCAAUAAAAUGAUUUUACUCAUUCAGUAUCUGAGUACUGGAAGUGAAACAUGAGGAAUGCUUUAGUGUAAUGUGGGAGAACUUUUUU: 0.896
CACCAGCUCAGCUGAGGCAUCCCAGCCAGGCAGGACCCUUGAGGGCCGCUGUAUCCAUGGUGAUGGGGUGAGGUUUUGGCCAAAAGGCCAAAGACUGGUGGUGGGUCCAC: 0.359
AGCACAUGCUUUGUUUCAUGUUAUGGGUGAGGACCUACAUACACUCUUACUUUAGCAGUCACUUAACCUUCUCCAGCAAGGCAGUUGUGGGGUUCACUAGGAUUUAGUGC: 0.353
UUUUUUGAAAAGAUGAACCAAAGGAUUUGACUGCUAAUAUUUUAUUCCUUACACUUUUUUUCUGAAUAAGUCUCUCAUAAUGAGUGCAGUGUCAGACUGUGCCUACUCUG: 0.565

Block 2
Target: TAR DNA-binding protein 43, full length, His tag (TARDBP, Homo sapiens, UniProt Q13148, residues 1-414)
Technique: RNA Bind-n-Seq
Molecule type: RNA
Matrix: in vitro
Tested at: 20 nM
Notes: 6-mer, flanks averaged, single round
Together with: 150 mM LiCl
Baseline: input library
Reading: higher = stronger binding
Quantity: 6-mer enrichment (R)
AUAAAU: 0.977
GGCUCC: 0.983
CUUAUU: 1.08
GGAUAC: 0.879
GACGGG: 1.11
UUCAAG: 0.852
UCAGGA: 0.891
UAGUUA: 0.98
ACAGUG: 0.99
CCUCUC: 0.971
GGCACU: 0.932
CGCGUG: 1.15
CCAACC: 0.878
AAGAGU: 1
UGAUAC: 0.886
AGGUCC: 0.885

Block 3
Target: Histone acetyltransferase KAT6A, winged helix 1, GST fusion (KAT6A, Homo sapiens, UniProt Q92794, residues 1-85)
Technique: protein binding microarray
Molecule type: double-stranded DNA, one strand shown
Matrix: in vitro
Tested at: not given
Notes: 8-mer, flanks averaged, mean of 2 arrays, mostly near background
Baseline: not given
Reading: higher = stronger binding
Quantity: E-score
Residues (chain): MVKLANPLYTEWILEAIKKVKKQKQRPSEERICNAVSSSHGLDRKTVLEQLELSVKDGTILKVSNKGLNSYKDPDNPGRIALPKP
GCCATTCA: 0.00379
CCCTAGTC: -0.227
AAGTTGAA: -0.298
GGCTAGGA: -0.189
AGTATTAG: -0.128
CGGGGTGA: 0.00736
CTCGGCAC: 0.217
GACATGTC: -0.00443
AACTACTT: -0.0793
CGGCGGGA: 0.466
CTTTATAC: 0.0419
GACAAGCA: 0.0132
CAATGGTG: -0.18
GGGTGCAA: -0.175
CTGACCAG: 0.0737
CGCTCCAA: 0.0942
CCCATCCG: -0.0381
CAATTGCC: -0.0334
GCCTTAAC: 0.0708
AACCGAAG: -0.0514
CAAGTTGC: -0.0538
AGTTTTTG: -0.242
CCTAACAA: -0.209
CGGGGTTC: 0.269
ACAGCTGC: -0.223

Block 4
Target: RING finger protein unkempt homolog, zinc fingers 1-6, GST-SBP tag (UNK, Homo sapiens, UniProt Q9C0B0, residues 30-357)
Chain of UniProt Q9C0B0 (30-357, looked up): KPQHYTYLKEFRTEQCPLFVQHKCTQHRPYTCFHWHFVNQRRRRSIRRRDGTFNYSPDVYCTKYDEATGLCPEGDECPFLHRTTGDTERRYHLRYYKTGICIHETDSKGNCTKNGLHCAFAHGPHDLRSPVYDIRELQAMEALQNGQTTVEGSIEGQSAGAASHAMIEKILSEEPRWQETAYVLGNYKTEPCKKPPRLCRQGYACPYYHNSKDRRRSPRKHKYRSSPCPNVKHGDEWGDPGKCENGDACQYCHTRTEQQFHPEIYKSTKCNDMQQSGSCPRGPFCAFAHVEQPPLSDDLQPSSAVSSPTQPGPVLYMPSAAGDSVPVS
Technique: RNA Bind-n-Seq
Molecule type: RNA
Matrix: in vitro
Tested at: not given
Notes: RNA with constant flanks, ends assumed
Baseline: input RNA pool
Reading: higher = stronger binding
Quantity: bound/input enrichment
Constant ends, left off below: GGGAGUUCUACAGUCCGACGAUC … CAACAGAGGAUUGAGCAUCA
UAUGAAGUGUACAGCUCCUCAGCAGGCCCUGCGGUCAGACACAAGUGCCUUAGAGCAAUUCUCCGGAUAAUUUAUUUUGCUGAUGCUGAACUUCUGAAGGAUGUUCUGAAAAAUCAUGCU: 1.65 ratio
GAUUUAGUAAAUGAAAUUUGACCAAAUGGAAGAAUCAUGUUAGUUCUGACCUCAAUACUACCGUAACUUUUAGGCGUGGGUGUAGAAGUUUAUAGGUUUCUAUUGACAGUUAUUGUAAAU: 1.94 ratio
AUGUAUCUUUCAUGAUUAAUGUGUGUGUGGGCAGCACCCUAAUCUAGAAUUCAUUCAUAAAACCGUGUUCCUACAUAGAAAAAUUUAGGAAGAGAAAUUACCCAUUGUGGUAAAGUUAUC: 14 ratio
AGGUUCUGGCUGAUAGACUGUCGACAGAUUCAGGAGUCUGUUGCCUUUGCAUCACAAGUGUACCGAGAAAUUAUCUGUGUGCCAUAUAUGGCCAAAUUUGUAGUGUUUGCCAAGUCACAU: 0.201 ratio
UUAUAGGAUUCCAAACCCAUGAGACAUGUUUUACAGGAAAUGAAAGCAUGAAUACUCAGGCCGCUGGAAGUGAGUUAAACAUGACAGGGACAGGUGGCAUUAAAACUGAGUCUAAAAGCU: 0.293 ratio
UACUGGAGGUCACUAGUUUUGUGAAGAGAUAUAGAACUUCUGGUUGAUGCUUCCUAGCGUUCCGGAUACGAGUUAUUGCACUCUACUUCCUAGCCUCUACUUUUAACUUGUAAGGCCUGC: 0.275 ratio
CAGCCGCUCAUGUACGUGAAAGUGCUCAUCCAGGUGGGAUAUGAGCCUCUUCCUCCAACAACCGGACGAAAUAUUUUUGGGCGACAAGUAUGUCAGCUUCCUGGCCUCUUUUGCUAUGCU: 0.208 ratio
UCAUGGUGUGAAAUAUAUCUACCCAAAGAGGUAACAUCCUAUAAAUAGUAGUAAUUAAUUCCGCUGCAACCUUUUUAGGUAUUAAAUUACAUGACAAACAGUUAAAAUGAAUUUAAGAAU: 6.1 ratio

Block 5
Target: PABPC1L2, full length, GST fusion (mouse, UniProt A0ABA7IW68)
Technique: RNAcompete
Molecule type: RNA
Matrix: in vitro
Tested at: 20 nM
Notes: 7-mer, probes averaged, single round
Baseline: mean of 7-mers
Reading: higher = stronger binding
Quantity: 7-mer Z-score
Target sequence (chain): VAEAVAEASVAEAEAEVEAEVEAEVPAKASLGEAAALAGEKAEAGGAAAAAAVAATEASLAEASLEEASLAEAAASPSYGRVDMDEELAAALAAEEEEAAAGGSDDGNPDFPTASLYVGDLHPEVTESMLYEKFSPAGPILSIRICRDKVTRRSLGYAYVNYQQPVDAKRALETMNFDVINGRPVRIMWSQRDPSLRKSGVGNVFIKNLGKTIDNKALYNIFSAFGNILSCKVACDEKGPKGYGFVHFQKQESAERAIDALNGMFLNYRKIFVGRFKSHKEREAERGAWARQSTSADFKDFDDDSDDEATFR
CGAGUGU: -0.177
CCUUUAU: -0.22
GACGCGU: -0.206
GCGUCAU: -0.17
AACUAAC: 0.356
GAUAAGC: -0.115
UAUGGGG: 0.187
UAACGGC: -0.0808
GCGAUCC: -0.249
CGCAUGG: -0.151
GUGUUAU: -0.311
AGAGCGU: -0.278
AAAGACG: 2.26
UCGUUCA: -0.454
GCCAAAG: 0.149
CGUGGAA: 0.0823
GUUUAUG: -0.293
